Results gathered from unrelated publications.
Each numbered part is a random draw from the data of one study; scales do not carry over between parts. Values joined by “and” are separate records of one study, mostly repeats; a detail may differ.
Chain of UniProt O43353 (whole entry, looked up): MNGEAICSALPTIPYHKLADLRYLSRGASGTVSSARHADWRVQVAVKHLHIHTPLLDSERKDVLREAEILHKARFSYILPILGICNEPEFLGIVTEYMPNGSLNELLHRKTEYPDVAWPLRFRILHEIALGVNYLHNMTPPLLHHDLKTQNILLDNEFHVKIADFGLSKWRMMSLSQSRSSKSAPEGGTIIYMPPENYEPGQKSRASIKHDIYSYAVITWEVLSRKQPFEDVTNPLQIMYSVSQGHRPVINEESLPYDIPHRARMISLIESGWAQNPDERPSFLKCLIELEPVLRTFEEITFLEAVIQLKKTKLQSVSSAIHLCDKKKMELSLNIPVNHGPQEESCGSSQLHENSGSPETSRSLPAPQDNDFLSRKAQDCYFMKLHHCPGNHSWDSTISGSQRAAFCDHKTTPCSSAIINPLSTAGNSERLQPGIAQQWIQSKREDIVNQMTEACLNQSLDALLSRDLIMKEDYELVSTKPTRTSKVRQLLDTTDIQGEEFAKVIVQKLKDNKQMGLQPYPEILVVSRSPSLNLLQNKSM
Chain of UniProt Q99640 (whole entry, looked up): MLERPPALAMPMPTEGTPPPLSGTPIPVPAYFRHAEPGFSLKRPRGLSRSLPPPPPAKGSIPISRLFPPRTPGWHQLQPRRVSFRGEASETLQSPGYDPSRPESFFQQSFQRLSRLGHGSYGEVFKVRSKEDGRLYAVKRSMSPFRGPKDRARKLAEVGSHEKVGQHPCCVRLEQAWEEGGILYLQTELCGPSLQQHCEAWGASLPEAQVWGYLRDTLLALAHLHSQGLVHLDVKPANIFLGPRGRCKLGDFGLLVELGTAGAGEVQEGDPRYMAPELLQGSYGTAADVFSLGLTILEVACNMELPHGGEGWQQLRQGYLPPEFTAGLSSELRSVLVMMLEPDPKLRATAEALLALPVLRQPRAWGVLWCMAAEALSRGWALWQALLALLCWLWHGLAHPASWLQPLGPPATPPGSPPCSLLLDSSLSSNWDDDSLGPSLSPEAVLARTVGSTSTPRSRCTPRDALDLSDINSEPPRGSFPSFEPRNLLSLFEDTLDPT
Chain of UniProt P08069 (whole entry, looked up): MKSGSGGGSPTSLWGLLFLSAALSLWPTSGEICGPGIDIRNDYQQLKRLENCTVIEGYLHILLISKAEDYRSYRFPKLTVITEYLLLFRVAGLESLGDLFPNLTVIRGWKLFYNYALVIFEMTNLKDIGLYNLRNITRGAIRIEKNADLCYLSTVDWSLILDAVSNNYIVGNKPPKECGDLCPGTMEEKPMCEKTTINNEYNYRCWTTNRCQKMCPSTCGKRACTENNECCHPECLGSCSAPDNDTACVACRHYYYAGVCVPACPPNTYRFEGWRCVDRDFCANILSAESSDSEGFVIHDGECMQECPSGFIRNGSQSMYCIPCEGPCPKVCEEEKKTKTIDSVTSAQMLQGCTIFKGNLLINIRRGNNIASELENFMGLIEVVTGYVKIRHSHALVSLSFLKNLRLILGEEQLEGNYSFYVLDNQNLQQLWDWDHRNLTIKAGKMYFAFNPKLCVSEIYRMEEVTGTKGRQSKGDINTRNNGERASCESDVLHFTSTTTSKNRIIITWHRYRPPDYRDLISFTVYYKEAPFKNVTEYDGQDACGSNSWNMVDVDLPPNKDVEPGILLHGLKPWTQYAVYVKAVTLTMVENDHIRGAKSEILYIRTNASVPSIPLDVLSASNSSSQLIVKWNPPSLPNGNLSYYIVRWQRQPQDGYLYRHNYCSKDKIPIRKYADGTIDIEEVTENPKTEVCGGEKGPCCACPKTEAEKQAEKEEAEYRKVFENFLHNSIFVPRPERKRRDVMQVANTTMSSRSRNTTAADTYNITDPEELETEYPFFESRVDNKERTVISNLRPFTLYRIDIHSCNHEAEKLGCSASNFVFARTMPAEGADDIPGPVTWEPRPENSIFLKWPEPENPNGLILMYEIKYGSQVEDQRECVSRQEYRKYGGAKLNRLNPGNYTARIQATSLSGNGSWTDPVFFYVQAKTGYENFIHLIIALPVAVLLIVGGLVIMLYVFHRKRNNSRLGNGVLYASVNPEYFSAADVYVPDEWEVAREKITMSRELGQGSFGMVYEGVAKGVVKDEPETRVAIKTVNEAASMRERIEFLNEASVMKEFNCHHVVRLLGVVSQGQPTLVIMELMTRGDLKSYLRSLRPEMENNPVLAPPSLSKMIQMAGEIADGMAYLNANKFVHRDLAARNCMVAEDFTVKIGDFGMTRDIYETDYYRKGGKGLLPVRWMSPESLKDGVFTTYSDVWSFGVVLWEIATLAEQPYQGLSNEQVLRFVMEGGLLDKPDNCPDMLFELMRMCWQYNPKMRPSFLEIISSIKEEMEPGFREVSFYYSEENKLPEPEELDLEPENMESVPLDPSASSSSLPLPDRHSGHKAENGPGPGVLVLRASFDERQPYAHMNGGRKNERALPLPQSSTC
Chain of UniProt P53667 (whole entry, looked up): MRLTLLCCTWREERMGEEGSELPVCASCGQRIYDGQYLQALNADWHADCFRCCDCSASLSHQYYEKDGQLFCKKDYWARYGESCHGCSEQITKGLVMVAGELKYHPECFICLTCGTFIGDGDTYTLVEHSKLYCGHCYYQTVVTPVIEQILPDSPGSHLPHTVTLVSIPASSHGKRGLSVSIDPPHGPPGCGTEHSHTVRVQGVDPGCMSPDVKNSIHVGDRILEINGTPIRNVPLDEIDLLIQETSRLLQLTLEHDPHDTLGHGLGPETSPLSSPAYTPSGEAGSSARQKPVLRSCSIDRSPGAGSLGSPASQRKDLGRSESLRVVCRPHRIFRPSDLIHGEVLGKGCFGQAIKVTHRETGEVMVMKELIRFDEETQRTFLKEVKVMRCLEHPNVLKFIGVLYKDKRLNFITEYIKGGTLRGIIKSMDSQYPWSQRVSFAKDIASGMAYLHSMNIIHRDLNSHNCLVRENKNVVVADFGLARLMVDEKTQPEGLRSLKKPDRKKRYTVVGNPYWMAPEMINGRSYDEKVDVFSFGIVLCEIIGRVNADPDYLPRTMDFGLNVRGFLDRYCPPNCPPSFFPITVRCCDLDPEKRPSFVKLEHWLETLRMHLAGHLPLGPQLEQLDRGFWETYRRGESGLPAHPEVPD
Chain of UniProt P27361 (whole entry, looked up): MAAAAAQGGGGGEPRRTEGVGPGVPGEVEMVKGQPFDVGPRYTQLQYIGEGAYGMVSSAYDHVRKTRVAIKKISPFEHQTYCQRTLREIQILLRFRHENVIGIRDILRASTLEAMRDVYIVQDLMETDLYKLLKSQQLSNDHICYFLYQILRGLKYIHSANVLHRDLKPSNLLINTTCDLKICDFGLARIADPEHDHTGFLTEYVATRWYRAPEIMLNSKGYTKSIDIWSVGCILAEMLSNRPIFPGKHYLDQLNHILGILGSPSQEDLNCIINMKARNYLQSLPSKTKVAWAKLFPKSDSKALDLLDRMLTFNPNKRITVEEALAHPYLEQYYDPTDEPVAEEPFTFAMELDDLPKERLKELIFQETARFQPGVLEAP
Chain of UniProt Q6P2M8 (whole entry, looked up): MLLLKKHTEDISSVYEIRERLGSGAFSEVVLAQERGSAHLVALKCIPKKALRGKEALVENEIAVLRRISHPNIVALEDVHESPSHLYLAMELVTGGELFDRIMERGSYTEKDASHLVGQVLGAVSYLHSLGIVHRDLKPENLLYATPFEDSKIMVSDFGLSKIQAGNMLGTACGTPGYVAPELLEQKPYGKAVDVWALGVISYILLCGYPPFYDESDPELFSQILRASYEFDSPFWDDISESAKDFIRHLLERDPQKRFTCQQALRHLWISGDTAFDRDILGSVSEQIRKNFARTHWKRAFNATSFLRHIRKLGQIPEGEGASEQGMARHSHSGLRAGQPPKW
Chain of UniProt Q92918 (whole entry, looked up): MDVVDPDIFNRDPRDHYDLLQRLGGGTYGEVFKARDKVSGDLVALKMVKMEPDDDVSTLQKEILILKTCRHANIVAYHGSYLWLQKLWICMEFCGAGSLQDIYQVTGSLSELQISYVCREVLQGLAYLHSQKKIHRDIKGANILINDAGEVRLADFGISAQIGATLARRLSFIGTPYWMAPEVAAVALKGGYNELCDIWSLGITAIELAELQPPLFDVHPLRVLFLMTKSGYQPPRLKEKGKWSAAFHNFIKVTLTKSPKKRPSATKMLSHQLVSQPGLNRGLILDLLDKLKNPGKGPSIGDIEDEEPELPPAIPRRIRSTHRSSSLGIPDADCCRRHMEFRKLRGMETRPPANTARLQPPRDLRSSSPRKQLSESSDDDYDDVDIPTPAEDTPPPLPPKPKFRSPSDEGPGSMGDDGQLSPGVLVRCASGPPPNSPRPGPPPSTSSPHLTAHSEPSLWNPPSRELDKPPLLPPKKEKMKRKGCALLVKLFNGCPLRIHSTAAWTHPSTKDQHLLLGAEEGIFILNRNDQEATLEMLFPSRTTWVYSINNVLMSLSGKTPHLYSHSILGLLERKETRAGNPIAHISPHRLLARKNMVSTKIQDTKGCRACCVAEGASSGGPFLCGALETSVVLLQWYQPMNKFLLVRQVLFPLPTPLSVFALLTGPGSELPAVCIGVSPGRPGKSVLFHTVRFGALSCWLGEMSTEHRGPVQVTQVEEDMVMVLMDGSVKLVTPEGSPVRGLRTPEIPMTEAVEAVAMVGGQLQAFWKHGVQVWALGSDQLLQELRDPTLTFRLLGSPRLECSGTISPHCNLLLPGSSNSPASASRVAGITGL
Chain of UniProt P50750 (whole entry, looked up): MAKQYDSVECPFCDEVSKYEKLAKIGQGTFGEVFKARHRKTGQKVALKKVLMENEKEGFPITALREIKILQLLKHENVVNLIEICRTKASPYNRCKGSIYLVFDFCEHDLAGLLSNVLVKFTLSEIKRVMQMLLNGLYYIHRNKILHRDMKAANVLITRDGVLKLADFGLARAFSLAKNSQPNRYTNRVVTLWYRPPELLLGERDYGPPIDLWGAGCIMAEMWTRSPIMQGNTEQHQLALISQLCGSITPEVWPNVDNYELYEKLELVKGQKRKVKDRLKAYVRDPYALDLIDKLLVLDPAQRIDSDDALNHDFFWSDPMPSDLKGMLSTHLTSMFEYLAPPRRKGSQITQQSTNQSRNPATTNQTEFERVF

Series 1
Compound: CC(C)(C)c1cnc(CSc2cnc(NC(=O)C3CCN(CCCCCCCCSc4cccc5c4C(=O)N(C4CCC(=O)NC4=O)C5=O)CC3)s2)o1 (centres unmarked)
Cell line: HH
Technique: CCK-8
| tested at | viability |
| --- | --- |
| 250 nM | 0% |
| 150 nM | 10.5% and 20% |
| 200 nM | 6.87% and 6.41% |
| 10 nM | 92% and 95.8% |

Series 2
Compound: C[C@@]1(Cc2ccc(C#N)cc2)C(=O)N(c2cc(Cl)cc(Cl)c2)c2ncc(C(=O)NC3(c4nc(C5CCC5)no4)CC3)n21
Effect on: cell-free assay
Technique: competition with immobilised ligand
Tested at: 1 µM
| target | remaining binding [%] |
| --- | --- |
| EPHA2 (Homo sapiens, UniProt P29317) | 56 |
| MAP4K1 (Homo sapiens, UniProt Q92918) | 100 |
| MATK (Homo sapiens, UniProt P42679) | 100 |
| CDK9 (Homo sapiens, UniProt P50750) | 100 |
| PRPF4B (Homo sapiens, UniProt Q13523) | 91 |
| EPHB3 (Homo sapiens, UniProt P54753) | 99 |
| PNCK (Homo sapiens, UniProt Q6P2M8) | 65 |
| MAPK3 (Homo sapiens, UniProt P27361) | 86 |
| LIM domain kinase 1 (LIMK1, Homo sapiens, UniProt P53667) | 90 |
| RIPK2 (Homo sapiens, UniProt O43353) | 91 |
| IGF1R (Homo sapiens, UniProt P08069) | 100 |
| PKMYT1 (Homo sapiens, UniProt Q99640) | 75 |

Series 3
Species: human
Sample: microsomes or S9
Tested at: 2 µM
Time: 0.5 h
| Structure (SMILES) | remaining compound |
| --- | --- |
| CC(=O)Nc1ccc(S(=O)(=O)N[C@H](C(=O)O)C2CCCCC2)cc1 | > 100% |
| CN(C)S(=O)(=O)CCc1cn([C@@H]2CCc3c(F)cccc32)nn1 | 90.3% |
| CC(C)(C)C(=O)N1CCC(C(=O)OCc2ccc(C(N)=O)cc2)CC1 | 78.2% |
| COC(=O)c1c(C)n(C(C)=O)c2ccc(NS(=O)(=O)c3ccc(F)cc3F)cc12 | 0.213% |
| COc1cc(C)c(S(=O)(=O)N2CCN(c3cc(-n4ccnc4C)ncn3)CC2)cc1C | 25.7% |
| Cc1cc(C#N)cc(C(=O)c2c(C(C)C)c(=O)n(Cc3cc(Cl)cc(Cl)n3)c(=O)n2Cc2cc(Cl)nc(Cl)n2)c1 | 0% |
| CCn1nc(C)c(CNc2nnc(C3CCCCC3)o2)c1C | 91.4% |
| CCC[C@@H]1CN(c2nc(N(C)C)nc3c2CCCC3)C[C@H]1NS(C)(=O)=O | 86% |
| COc1nc(Nc2ccc3[nH]ncc3c2)c(Cl)c(OC)n1 | 71.3% |
| CN1C(=O)c2cccc3c2C1=Cc1ccc2ccccc2c1O3 | 104% |
| CNC(=O)C1CCN(c2nc(Nc3ccc4[nH]ncc4c3)nc(OC)n2)CC1 | 94% |
| COCCNc1nc(N2CCCC2)nc2nccnc12 | 75.6% |

Mixed results
| Compound | test | system | conditions | quantity | value |
| --- | --- | --- | --- | --- | --- |
| CCCN1C(=O)[C@H](CC(C)C)NC(=O)[C@@H](N(C)C(=O)[C@H](CC2CCC2)NC(=O)[C@@H]2C[C@@H](F)CN2C(=O)[C@@](C)(O)C(F)(F)F)CCCCNC(=O)C2(CC2)NC(=O)[C@@H]1Cc1cc(Cl)ccc1Cl | immunohistochemistry | mice, NCI-H69 xenograft, tumour | intravenous, 100 mg/kg once daily, 18 h | cleaved caspase-3 positive cells | 57% and 45.3% |

For quick reference, copied from above (series 2):
| target | remaining binding [%] |
| --- | --- |
| RIPK2 (Homo sapiens, UniProt O43353) | 91 |
| IGF1R (Homo sapiens, UniProt P08069) | 100 |
